Results gathered from unrelated publications.
Several values in a cell are separate wells, animals, samples, runs or records. ± marks the error that the study gave.

[Cl][Au].c1ccc(P(c2ccccc2)c2ccccc2)cc1
EC50 (MCF-10A; cell growth or viability, resazurin; 72 h): 18.9 µM

CC[C@H](C)[C@H](NC(=O)[C@H](CCCCN)NC(=O)[C@H](CCCCN)NC(=O)[C@H](C)NC(=O)[C@H](CC(C)C)NC(=O)[C@H](C)NC(=O)[C@H](C)NC(=O)[C@H](CC(C)C)NC(=O)[C@H](C)NC(=O)[C@H](CCCCN)NC(=O)[C@H](CC(C)C)NC(=O)[C@H](CC(N)=O)NC(=O)[C@@H](NC(=O)[C@H](CCCCN)NC(=O)CNC(=O)[C@H](CC(C)C)NC(=O)[C@H](CC(C)C)NC(=O)[C@H](Cc1c[nH]c2ccccc12)NC(=O)CNC(=O)[C@H](C)N)[C@@H](C)CC)C(=O)N[C@@H](CC(C)C)C(N)=O
EC50 (sheep erythrocytes; turbidity; pH 7.5): 47 ± 12 µM

CC[C@H](C)[C@H](NC(=O)CN)C(=O)N[C@H](C(=O)N[C@@H](CC(N)=O)C(=O)N[C@H](C(=O)N[C@@H](CC(C)C)C(=O)N[C@@H](CCC(N)=O)C(=O)N[C@@H](CCCCN)C(=O)N[C@@H](Cc1ccc(O)cc1)C(=O)N[C@@H](Cc1ccc(O)cc1)C(=O)N[C@H]1CSSC[C@@H]2NC(=O)[C@H](CCCCN)NC(=O)[C@H](CCCNC(=N)N)NC(=O)CNC(=O)[C@H](CCCNC(=N)N)NC(=O)[C@H]([C@@H](C)O)NC(=O)[C@H](CO)NC(=O)[C@@H]3CSSC[C@H](NC(=O)[C@H](CCCNC(=N)N)NC(=O)CNC(=O)CNC(=O)[C@H](CCCNC(=N)N)NC(=O)[C@H](C(C)C)NC(=O)[C@H](CCCNC(=N)N)NC1=O)C(=O)N[C@@H](C)C(=O)N[C@@H](C(C)C)C(=O)N[C@@H](CC(C)C)C(=O)N[C@@H](CO)C(=O)N[C@@H](CSSC[C@@H](C(=O)N[C@@H](CCCNC(=N)N)C(=O)N[C@@H](CCCNC(=N)N)C(=O)N[C@@H](CCCCN)C(=O)N[C@@H](CCCCN)C(=O)O)NC2=O)C(=O)N[C@@H](CC(C)C)C(=O)N1CCC[C@H]1C(=O)N[C@@H](CCCCN)C(=O)N[C@@H](CCC(=O)O)C(=O)N[C@@H](CCC(=O)O)C(=O)N[C@@H](CCC(N)=O)C(=O)N[C@@H]([C@@H](C)CC)C(=O)NCC(=O)N[C@@H](CCCCN)C(=O)N3)[C@@H](C)O)[C@@H](C)CC
EC50 (LAD2; calcium influx): 0.74 ± 0.23 µM

CC(C)C[C@H](NC(=O)CNC(=O)[C@H](CCC(=O)O)NC(=O)[C@H](CCCCN)NC(=O)[C@H](CC(C)C)NC(=O)[C@H](C)NC(=O)[C@H](C)NC(=O)CNC(=O)[C@H](C)NC(=O)[C@H](CCCCN)NC(=O)[C@H](CCC(=O)O)NC(=O)[C@H](CC(C)C)NC(=O)[C@H](CCCCN)NC(=O)[C@H](CCCCN)NC(=O)[C@H](CC(C)C)NC(=O)[C@H](CC(C)C)NC(=O)[C@H](CCCCN)NC(=O)[C@H](Cc1c[nH]c2ccccc12)NC(=O)[C@@H](N)CCCCN)C(=O)N[C@@H](CC(C)C)C(=O)N[C@@H](CCCCN)C(=O)N[C@@H](C)C(=O)NCC(=O)N1CCC[C@H]1C(=O)N[C@@H](C)C(=O)N[C@@H](CC(C)C)C(=O)N[C@@H](C)C(=O)N[C@@H](CC(C)C)C(=O)N[C@@H](CC(C)C)C(=O)NCC(=O)N[C@@H](C)C(=O)N[C@@H](C)C(=O)N[C@@H](C)C(=O)N[C@@H](C)C(=O)N[C@@H](CC(C)C)C(=O)N[C@@H](C)C(=O)N[C@@H](CCCCN)C(N)=O
EC50 (sheep erythrocytes; turbidity; pH 7.5): 85 ± 8 µM

CC[C@H](C)[C@H](NC(=O)[C@H](CCCCN)NC(=O)[C@H](CC(C)C)NC(=O)[C@H](CC(C)C)NC(=O)[C@H](C)NC(=O)CNC(=O)[C@H](CC(C)C)NC(=O)[C@@H](N)Cc1ccccc1)C(=O)NCC(=O)N[C@@H](C)C(=O)N[C@@H](CCCCN)C(=O)N[C@@H](CC(C)C)C(=O)N[C@@H](CC(C)C)C(=O)N1CCC[C@H]1C(=O)N[C@@H](CO)C(=O)N[C@H](C(=O)N[C@H](C(=O)NCC(=O)N[C@@H](CC(C)C)C(=O)N[C@@H](Cc1ccccc1)C(=O)N[C@@H](CCCCN)C(=O)N[C@@H](CCCCN)C(=O)N[C@@H](CCCCN)C(=O)N[C@@H](CCC(N)=O)C(=O)N[C@@H](CCC(N)=O)C(=O)O)C(C)C)C(C)C
EC50 (F11 cells; intracellular calcium, FLIPR; 0.1% BSA): 0.9 to 1.5 µM and 0.99 µM

NC(=O)CCl
EC50 (SW480 expressing Rad51-EGFP; Rad51 nuclear foci; 24 h; relative to: 10 µM camptothecin): 300 µM

CCNC(=O)[C@H]1O[C@@H](n2cnc3c(N)ncnc32)[C@H](O)[C@@H]1O
EC50 (aortic endothelial cells of db/db mice; IL-6 production, activator; 24 h): 0.046 µM

CC(C)C[C@H](NC(=O)CN)C(=O)NCC(=O)N[C@@H](CCCCN)C(=O)N[C@@H](CC(C)C)C(=O)N[C@@H](CC(C)C)C(=O)N[C@@H](Cc1c[nH]cn1)C(=O)N[C@@H](C)C(=O)N[C@@H](C)C(=O)N[C@@H](CCCCN)C(=O)N[C@@H](CCCCN)C(=O)N[C@@H](CC(C)C)C(=O)NCC(=O)N[C@@H](CCCCN)C(=O)N[C@@H](C)C(=O)N[C@@H](Cc1c[nH]c2ccccc12)C(=O)N[C@@H](CC(C)C)C(=O)NCC(=O)N[C@@H](CCC(=O)O)C(=O)N[C@@H](CC(C)C)C(=O)N[C@@H](CC(C)C)C(=O)N[C@@H](C)C(=O)N[C@@H](C)C(=O)O
EC50 (sheep erythrocytes; turbidity; pH 7.5): 55 ± 14 µM

O=C(NC(=O)c1c(F)cccc1F)Nc1cc(Cl)c(F)c(Cl)c1F
EC50 (Caco-2; viability, MTT; 72 h): 571 ± 51 µM

CC[C@H](C)[C@H](NC(=O)[C@H](C)NC(=O)[C@H](C)NC(=O)[C@H](CC(N)=O)NC(=O)[C@H](C)NC(=O)[C@H](C)NC(=O)[C@H](C)NC(=O)[C@H](CCCNC(=N)N)NC(=O)[C@H](CC(C)C)NC(=O)[C@@H](NC(=O)[C@H](CCC(=O)O)NC(=O)[C@@H]1CCCN1C(=O)CNC(=O)[C@H](CCCCN)NC(=O)[C@H](CCC(=O)O)NC(=O)[C@H](CCCCN)NC(=O)[C@@H](NC(=O)[C@H](Cc1ccccc1)NC(=O)[C@H](CC(=O)O)NC(=O)[C@H](CCCCN)NC(=O)[C@H](C)NC(=O)[C@H](CCCCN)NC(=O)[C@H](CC(N)=O)NC(=O)[C@H](CC(C)C)NC(=O)[C@H](Cc1c[nH]c2ccccc12)NC(=O)[C@H](CC(=O)O)NC(=O)[C@H](CCCCN)NC(=O)[C@H](Cc1c[nH]c2ccccc12)NC(=O)CN)[C@@H](C)CC)[C@@H](C)CC)C(=O)N[C@@H](CC(N)=O)C(=O)O
EC50 (HEK293 cells; intracellular calcium, FLIPR; 0.1% BSA): 57.9 ± 5.87 µM

N#Cc1nn(-c2c(Cl)cc(C(F)(F)F)cc2Cl)c(N)c1[S+]([O-])C(F)(F)F (stereo not shown)
EC50 (Caco-2; viability, MTT; 168 h): 21.6 ± 0.5 µM

c1ccc([C@@H]2C[C@H]2NC2CCNCC2)cc1
EC50 (THP-1; cell differentiation, flow cytometry, measured: CD11b; 96 h): 0.00062 µM

Cc1ncsc1-c1ccc([C@H](C)NC(=O)[C@@H]2C[C@@H](O)CN2C(=O)[C@@H](NC(=O)CNC(=O)c2ccc(F)c(-c3ccc(N4C[C@@H](C)N(C)[C@@H](C)C4)c(NC(=O)c4c[nH]c(=O)cc4C(F)(F)F)c3)c2)C(C)(C)C)cc1
EC50 (MV4-11; cell growth or viability, ATP luminescence): 0.0089 µM

COP(=S)(OC)Oc1ccc([N+](=O)[O-])c(C)c1
EC50 (Caco-2; viability, MTT; 72 h): 31.6 ± 0.7 µM

CC(C)C[C@H](NC(=O)[C@H](CC(C)C)NC(=O)[C@H](CCCCN)NC(=O)[C@H](CCCCN)NC(=O)[C@H](C)NC(=O)[C@H](CC(C)C)NC(=O)[C@H](C)NC(=O)[C@H](C)NC(=O)[C@H](CC(C)C)NC(=O)[C@H](C)NC(=O)[C@H](CCCCN)NC(=O)[C@H](CC(C)C)NC(=O)[C@H](C)NC(=O)[C@H](CC(C)C)NC(=O)[C@H](CCCCN)NC(=O)CNC(=O)[C@H](CC(C)C)NC(=O)[C@H](CC(C)C)NC(=O)[C@H](Cc1c[nH]c2ccccc12)NC(=O)CNC(=O)[C@H](C)N)C(N)=O
EC50 (sheep erythrocytes; turbidity; pH 7.5): 5.3 ± 0.8 µM

CC1(C)[C@H](C(=O)O[C@H](C#N)c2cccc(Oc3ccccc3)c2)[C@@H]1/C=C(\Cl)C(F)(F)F (racemic)
EC50 (Caco-2; viability, MTT; 72 h): 72.9 ± 2.7 µM

CC[C@H](C)[C@H](NC(=O)[C@H](CC(C)C)NC(=O)CNC(=O)[C@@H]1CCCN1C(=O)[C@H](CC(C)C)NC(=O)[C@H](C)NC(=O)[C@H](CCCCN)NC(=O)CNC(=O)[C@H](CC(C)C)NC(=O)[C@H](CCSC)NC(=O)[C@H](CCCCN)NC(=O)[C@H](C)NC(=O)[C@H](C)NC(=O)[C@H](C)NC(=O)CNC(=O)[C@H](Cc1c[nH]c2ccccc12)NC(=O)[C@@H](N)Cc1ccccc1)C(=O)N[C@@H](CO)C(=O)N[C@@H](CCSC)C(=O)N[C@@H](Cc1ccccc1)C(=O)N[C@@H](CCC(N)=O)C(=O)N[C@@H](CCCCN)C(=O)N[C@@H](CC(N)=O)C(=O)O
EC50 (HEK293 cells; intracellular calcium, FLIPR; 0.1% BSA): 6.88 ± 1.98 µM

CC1(C)[C@H](C(=O)O[C@H](C#N)c2cccc(Oc3ccccc3)c2)[C@@H]1C=C(Br)Br
EC50 (Caco-2; viability, MTT; 240 h): 112 ± 3.3 µM

F[P-](F)(F)(F)(F)F.F[P-](F)(F)(F)(F)F.[Ru+2].c1ccc(-c2ccccn2)nc1.c1ccc(-c2ccccn2)nc1.c1csc(-c2ccc(-c3cc4cccnc4c4ncccc34)s2)c1
EC50 (HL-60; cell viability, resazurin; 16 h drug-to-light interval, with: visible light 100 J/cm2): 0.31 ± 0.01 µM

Some of these lines once more:
CC[C@H](C)[C@H](NC(=O)[C@H](CCCCN)NC(=O)[C@H](CCCCN)NC(=O)[C@H](C)NC(=O)[C@H](CC(C)C)NC(=O)[C@H](C)NC(=O)[C@H](C)NC(=O)[C@H](CC(C)C)NC(=O)[C@H](C)NC(=O)[C@H](CCCCN)NC(=O)[C@H](CC(C)C)NC(=O)[C@H](CC(N)=O)NC(=O)[C@@H](NC(=O)[C@H](CCCCN)NC(=O)CNC(=O)[C@H](CC(C)C)NC(=O)[C@H](CC(C)C)NC(=O)[C@H](Cc1c[nH]c2ccccc12)NC(=O)CNC(=O)[C@H](C)N)[C@@H](C)CC)C(=O)N[C@@H](CC(C)C)C(N)=O
EC50 (sheep erythrocytes; turbidity; pH 7.5): 47 ± 12 µM

CC[C@H](C)[C@H](NC(=O)CN)C(=O)N[C@H](C(=O)N[C@@H](CC(N)=O)C(=O)N[C@H](C(=O)N[C@@H](CC(C)C)C(=O)N[C@@H](CCC(N)=O)C(=O)N[C@@H](CCCCN)C(=O)N[C@@H](Cc1ccc(O)cc1)C(=O)N[C@@H](Cc1ccc(O)cc1)C(=O)N[C@H]1CSSC[C@@H]2NC(=O)[C@H](CCCCN)NC(=O)[C@H](CCCNC(=N)N)NC(=O)CNC(=O)[C@H](CCCNC(=N)N)NC(=O)[C@H]([C@@H](C)O)NC(=O)[C@H](CO)NC(=O)[C@@H]3CSSC[C@H](NC(=O)[C@H](CCCNC(=N)N)NC(=O)CNC(=O)CNC(=O)[C@H](CCCNC(=N)N)NC(=O)[C@H](C(C)C)NC(=O)[C@H](CCCNC(=N)N)NC1=O)C(=O)N[C@@H](C)C(=O)N[C@@H](C(C)C)C(=O)N[C@@H](CC(C)C)C(=O)N[C@@H](CO)C(=O)N[C@@H](CSSC[C@@H](C(=O)N[C@@H](CCCNC(=N)N)C(=O)N[C@@H](CCCNC(=N)N)C(=O)N[C@@H](CCCCN)C(=O)N[C@@H](CCCCN)C(=O)O)NC2=O)C(=O)N[C@@H](CC(C)C)C(=O)N1CCC[C@H]1C(=O)N[C@@H](CCCCN)C(=O)N[C@@H](CCC(=O)O)C(=O)N[C@@H](CCC(=O)O)C(=O)N[C@@H](CCC(N)=O)C(=O)N[C@@H]([C@@H](C)CC)C(=O)NCC(=O)N[C@@H](CCCCN)C(=O)N3)[C@@H](C)O)[C@@H](C)CC
EC50 (LAD2; calcium influx): 0.74 ± 0.23 µM

CC(C)C[C@H](NC(=O)CNC(=O)[C@H](CCC(=O)O)NC(=O)[C@H](CCCCN)NC(=O)[C@H](CC(C)C)NC(=O)[C@H](C)NC(=O)[C@H](C)NC(=O)CNC(=O)[C@H](C)NC(=O)[C@H](CCCCN)NC(=O)[C@H](CCC(=O)O)NC(=O)[C@H](CC(C)C)NC(=O)[C@H](CCCCN)NC(=O)[C@H](CCCCN)NC(=O)[C@H](CC(C)C)NC(=O)[C@H](CC(C)C)NC(=O)[C@H](CCCCN)NC(=O)[C@H](Cc1c[nH]c2ccccc12)NC(=O)[C@@H](N)CCCCN)C(=O)N[C@@H](CC(C)C)C(=O)N[C@@H](CCCCN)C(=O)N[C@@H](C)C(=O)NCC(=O)N1CCC[C@H]1C(=O)N[C@@H](C)C(=O)N[C@@H](CC(C)C)C(=O)N[C@@H](C)C(=O)N[C@@H](CC(C)C)C(=O)N[C@@H](CC(C)C)C(=O)NCC(=O)N[C@@H](C)C(=O)N[C@@H](C)C(=O)N[C@@H](C)C(=O)N[C@@H](C)C(=O)N[C@@H](CC(C)C)C(=O)N[C@@H](C)C(=O)N[C@@H](CCCCN)C(N)=O
EC50 (sheep erythrocytes; turbidity; pH 7.5): 85 ± 8 µM
